Results gathered from unrelated publications.
Each numbered part is a random draw from the data of one study; scales do not carry over between parts. Substitutions count along the parent as printed.

Series 1
Target: Sal-like protein 4, full length isoform B (SALL4, Homo sapiens, UniProt Q9UJQ4-2, residues 1-616)
Technique: universal PBM
Form: double-stranded DNA, one strand shown
Medium: in vitro
Tested at: not given
Notes: 8-mer, flanks averaged, mean of replicates
Direction: higher = stronger binding
Residues (chain): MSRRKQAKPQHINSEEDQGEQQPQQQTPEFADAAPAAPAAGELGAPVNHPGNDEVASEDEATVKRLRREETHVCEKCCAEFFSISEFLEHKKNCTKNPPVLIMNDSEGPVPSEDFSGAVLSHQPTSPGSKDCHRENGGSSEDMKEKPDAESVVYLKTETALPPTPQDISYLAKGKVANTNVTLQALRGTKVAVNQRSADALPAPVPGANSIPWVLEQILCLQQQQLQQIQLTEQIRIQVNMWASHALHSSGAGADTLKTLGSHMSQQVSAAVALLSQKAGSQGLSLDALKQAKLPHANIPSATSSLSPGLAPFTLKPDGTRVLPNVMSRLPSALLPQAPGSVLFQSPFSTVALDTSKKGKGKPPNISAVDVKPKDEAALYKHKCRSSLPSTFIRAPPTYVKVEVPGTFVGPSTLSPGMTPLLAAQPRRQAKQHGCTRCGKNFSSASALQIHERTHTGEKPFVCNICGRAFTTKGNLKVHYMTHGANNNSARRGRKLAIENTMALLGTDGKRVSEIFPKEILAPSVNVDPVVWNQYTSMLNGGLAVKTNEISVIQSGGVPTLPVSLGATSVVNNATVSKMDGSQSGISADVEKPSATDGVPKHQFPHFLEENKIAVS
The E-score of `CCTGTGTC` is reported as -0.223.
For `GGACAGTA`, the E-score was 0.109.
With `CGCGATTC` the E-score was -0.176.
The E-score of `ACGTATCC` is reported as -0.176.
`CATTTTTA` has an E-score of 0.273.
For `ATTACCCC`, the E-score was 0.0585.
`AGGCGCCA` gave an E-score of -0.154.
The E-score of `ATTACTTG` is reported as 0.206.
`ATTTATTG` gave an E-score of 0.328.
`CATACCCA` gave an E-score of -0.00173.
`ATCCGTCG` gave an E-score of -0.1.
The E-score of `GTACGCAA` is reported as -0.0281.
`AACTTAAA` gave an E-score of 0.235.
With `GTGCCAAC` the E-score was -0.163.
For `CCTAGGAC`, the E-score was -0.124.
For `AGAAATAC`, the E-score was 0.171.

Series 2
Target: CCNF, cyclin fold, Cln2 fusion (human)
Technique: yeast growth competition, sequencing
Medium: yeast
Notes: strong parent motif
Baseline: not given
Direction: higher = stronger binding
Starting sequence: PKMYT1 docking peptide (human); SFEPRNLLSLFED
For `SFEPRNRLSLFED [L7R]`, “normalised enrichment score” read -0.603.
`SFEPRALLSLFED [N6A]`: “normalised enrichment score” 1.04.
`SFEPINLLSLFED [R5I]`: “normalised enrichment score” 1.06.
`SFEPRNLLSAFED [L10A]` — result for “normalised enrichment score”: -0.127.
For `SFEPRNLWSLFED [L8W]`, “normalised enrichment score” read -0.165.
`SFEPKNLLSLFED [R5K]` — result for “normalised enrichment score”: 0.801.
Under “normalised enrichment score”, `SFEPRNLQSLFED [L8Q]` is recorded as -0.281.
`SFEPRNLLSLYED [F11Y]`: “normalised enrichment score” -0.182.
Under “normalised enrichment score”, `SFEPANALSLFED [R5A L7A]` is recorded as -0.826.
`SMEPRNLLSLFED [F2M]`: “normalised enrichment score” 0.779.
For `SFEPRCLLSLFED [N6C]`, “normalised enrichment score” read 2.35.
`SIEPRNLLSLFED [F2I]` — result for “normalised enrichment score”: 0.456.
`SFEPRNLLSLVED [F11V]` — result for “normalised enrichment score”: -0.202.
`SFEPNNLLSLFED [R5N]` — result for “normalised enrichment score”: -1.27.
Under “normalised enrichment score”, `SFEPRNLMSLFED [L8M]` is recorded as 2.08.
For `STEPRNLLSLFED [F2T]`, “normalised enrichment score” read 1.32.
`SFEPRNLLGLFED [S9G]`: “normalised enrichment score” 0.666.
For `SFEPRWLLSLFED [N6W]`, “normalised enrichment score” read 0.432.
`SFEPRNLLSLFWD [E12W]` — result for “normalised enrichment score”: 1.56.
For `SFEPRLLLSLFED [N6L]`, “normalised enrichment score” read 0.22.
Under “normalised enrichment score”, `SEEPRNLLSLFED [F2E]` is recorded as -0.11.
For `SFEPRNGLSLFED [L7G]`, “normalised enrichment score” read -0.871.
`SFEFRNLLSLFED [P4F]` — result for “normalised enrichment score”: -0.488.
`SFEPRELLSLFED [N6E]`: “normalised enrichment score” -0.469.
For `SFEPYNLLSLFED [R5Y]`, “normalised enrichment score” read -1.16.

Series 3
Target: ABI1, truncated, D143A, DHFR fusion (Arabidopsis thaliana)
Technique: DHFR PCA, deep sequencing
Medium: yeast
Notes: methotrexate growth selection, single substitutions
Together with: (+)-ABA 710 µM
Baseline: wild-type fitted maximum
Direction: higher = stronger binding
Starting sequence: PYL1, truncated, DHFR fusion (Arabidopsis thaliana); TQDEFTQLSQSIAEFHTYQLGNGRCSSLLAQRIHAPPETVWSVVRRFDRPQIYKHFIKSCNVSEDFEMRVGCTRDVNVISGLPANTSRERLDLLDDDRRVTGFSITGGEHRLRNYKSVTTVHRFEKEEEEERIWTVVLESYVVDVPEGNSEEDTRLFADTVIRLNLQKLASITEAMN; partner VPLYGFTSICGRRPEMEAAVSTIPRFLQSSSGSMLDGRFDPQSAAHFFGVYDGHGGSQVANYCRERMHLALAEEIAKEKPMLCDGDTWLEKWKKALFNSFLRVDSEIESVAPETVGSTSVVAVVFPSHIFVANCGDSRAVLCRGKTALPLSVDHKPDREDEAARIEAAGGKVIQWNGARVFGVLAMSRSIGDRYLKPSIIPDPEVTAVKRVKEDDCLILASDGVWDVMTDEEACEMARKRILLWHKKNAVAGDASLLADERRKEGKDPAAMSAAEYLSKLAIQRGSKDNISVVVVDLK
`R90F` — result for “relative binding score”: 66.6%.
For `F56T`, “relative binding score” read 62.8%.
`Y18W`: “relative binding score” 100%.
`R113S` — result for “relative binding score”: 107%.
`F5R`: “relative binding score” 106%.
Under “relative binding score”, `T120C` is recorded as 39.1%.
`K58C` — result for “relative binding score”: 88.8%.
`L20T`: “relative binding score” 101%.
Under “relative binding score”, `K58G` is recorded as 94.1%.
`A35F`: “relative binding score” 29.6%.
Under “relative binding score”, `W41T` is recorded as -3.98%.
`V143E` — result for “relative binding score”: -8.72%.
`S80G`: “relative binding score” 76.8%.
`S117L`: “relative binding score” -3.87%.
Under “relative binding score”, `L138R` is recorded as 35.5%.
For `L29N`, “relative binding score” read 102%.
`V62Q` — result for “relative binding score”: 80.8%.
`D159W`: “relative binding score” 21.3%.
For `I133R`, “relative binding score” read 109%.

Series 4
Target: RING finger protein unkempt homolog, zinc fingers 1-6, GST-SBP tag (UNK, Homo sapiens, UniProt Q9C0B0, residues 30-357)
Chain of UniProt Q9C0B0 (30-357, looked up): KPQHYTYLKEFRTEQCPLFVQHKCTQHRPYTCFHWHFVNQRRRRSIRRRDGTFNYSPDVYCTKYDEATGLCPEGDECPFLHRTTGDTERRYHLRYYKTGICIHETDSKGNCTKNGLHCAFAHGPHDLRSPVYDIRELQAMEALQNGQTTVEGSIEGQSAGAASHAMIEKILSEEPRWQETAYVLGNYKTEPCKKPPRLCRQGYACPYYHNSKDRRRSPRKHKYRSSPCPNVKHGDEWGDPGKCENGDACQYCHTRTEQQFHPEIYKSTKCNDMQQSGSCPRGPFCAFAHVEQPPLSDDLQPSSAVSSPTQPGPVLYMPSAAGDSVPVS
Technique: RNA Bind-n-Seq
Form: RNA
Medium: in vitro
Tested at: not given
Notes: RNA with constant flanks, human and mouse sites, ends assumed
Baseline: input RNA pool
Direction: higher = stronger binding
`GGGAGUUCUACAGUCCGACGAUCAUUCAGCCAGGAGGGUAGAGGUGGCUUUUAAUUUACCAUGUGGGCAUUACUGGACACAUUUUUUUAAAUAUGAAACUUAACCAUGCAUACUUUGUUGAGUAUUGAAGUUGUUCCACUGCUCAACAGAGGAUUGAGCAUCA` gave a bound/input enrichment of 0.451 ratio.
With `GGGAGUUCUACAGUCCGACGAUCCUCAGAGACGUGGCAUAUCAAUAUGUGAAAAAGGGGUCUCGAAUUUAUUUGGAAGGGAAAAUAGACUAUGGUGAAUACAUGGAUAAAAAUAAUGUGAGGCGACAAGCAACAACAAUCAUACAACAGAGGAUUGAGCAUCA` the bound/input enrichment was 0.641 ratio.
The bound/input enrichment of `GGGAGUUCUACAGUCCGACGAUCUCUAUAGCUACCCUACUUCUUCGAAUAGAGAAAGAGGAAUUGGAUAUGAAAGGAAGUGGUUUCUAUGUUUCUCUGGAGUGGGUCACUAUCAGUAAGAAAAAUCAAGAUAAUAAAAAAUAUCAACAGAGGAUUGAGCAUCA` is reported as 0.357 ratio.
`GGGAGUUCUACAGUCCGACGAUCGAUGCAGUUCUUAUUGAUUACCAGAGAAAUGUACCAGCUGCUAGAGAACCAGAAGUGCUUAGUACUAUGGCCAUUAUUGUCAACAAAUUAGGUGGACAUAUAACAGCUGAAAUACCUCAACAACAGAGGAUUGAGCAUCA` gave a bound/input enrichment of 0.329 ratio.
The bound/input enrichment of `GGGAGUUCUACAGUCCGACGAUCGAAUGGUACCUUCUAGCGACUGGCCUAUUUUUAUUGAGAAAAAAACUUGUUCUAUUUUUGUUGUUGUUACUGUUCUUAUGGAUUGCAUUCAUAUUUAAACCCUUUGGAUUGCUAACCAGACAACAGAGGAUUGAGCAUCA` is reported as 0.286 ratio.
With `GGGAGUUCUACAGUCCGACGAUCGUGAACGCCUUCAGUCAUGCUAUGGAAUUUGUGUAUCCUCAUUACUGUAUCAUUUGUGGGGUACACCCCUCCCCUCUUUUUUAAAUUAAAUACAGCUCAUUCUUACUGUGGCUUGUAGCACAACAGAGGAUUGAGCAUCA` the bound/input enrichment was 2.4 ratio.
The bound/input enrichment of `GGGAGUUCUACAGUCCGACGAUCGAUUGUCAAGUGGGGAACACGACAGACUUCUGUUCCGUUUCCACGGCCACUCCAGUGCCAACAGCCAAUUCUACAGCUAAACCCACAGUUCAGCCCUCCCCUUCUACAACUUCCAAGACACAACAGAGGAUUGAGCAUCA` is reported as 0.293 ratio.
For `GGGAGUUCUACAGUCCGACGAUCAGCCAAUUUUUGCUUUCAUUGCAAGCUAUAUCUACAAUGGUACAUUUUUACAUGGGAACAAAAGGACCUGAAAAUCCUCAAGUUGAAGUGUUAUCAGAGGAAGAAGGGGAAGAAGAAGAGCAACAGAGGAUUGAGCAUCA`, the bound/input enrichment was 0.212 ratio.
`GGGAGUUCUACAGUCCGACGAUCCUCACAAACAGCCAUCUGGAGAAAAGGAAAUGCGACGAGUAUAUUCCAGGAACAACCUCCCUGGGAAUGUCUGUCUUUAACCUGAGCAACGCCAUCAUGGGCAGUGGAAUCUUGGGCCUUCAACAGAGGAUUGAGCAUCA` gave a bound/input enrichment of 0.139 ratio.
For `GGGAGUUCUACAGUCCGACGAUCUAGCCUGCACAAAUAAUUGACAAAUGUCACCCAAAGGAUUCUUUUGGGAGGGUUUUUGUUUGCUUGUUUUGCAUAAGAGUUUGUAUUAAAGAACUUCAAAGGAAGGAACAGGGAUACUCUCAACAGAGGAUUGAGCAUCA`, the bound/input enrichment was 0.617 ratio.
For `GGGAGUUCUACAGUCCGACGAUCACUCACGUGCCCAUGUUACAAGUCUGGACUGCCGACAAACCACAUCCACAGGAAGAGUAUUUAGAUUGCCUGUGGGCCCAGAUUCAGAAAUUGAAAAAAGACCGGUGGCAGGAGAGGCACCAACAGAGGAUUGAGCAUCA`, the bound/input enrichment was 0.467 ratio.

Excerpt of the above (series 1):
For `AGAAATAC`, the E-score was 0.171.
`AGGCGCCA` gave an E-score of -0.154.
The E-score of `ACGTATCC` is reported as -0.176.
`ATTTATTG` gave an E-score of 0.328.
`AACTTAAA` gave an E-score of 0.235.
`CATTTTTA` has an E-score of 0.273.
